Published values of several laboratories.
A part holds a random share of what one study measured. Positions count from the first letter of the parent shown.
UniProt Q96SW2, sequence (whole entry, looked up): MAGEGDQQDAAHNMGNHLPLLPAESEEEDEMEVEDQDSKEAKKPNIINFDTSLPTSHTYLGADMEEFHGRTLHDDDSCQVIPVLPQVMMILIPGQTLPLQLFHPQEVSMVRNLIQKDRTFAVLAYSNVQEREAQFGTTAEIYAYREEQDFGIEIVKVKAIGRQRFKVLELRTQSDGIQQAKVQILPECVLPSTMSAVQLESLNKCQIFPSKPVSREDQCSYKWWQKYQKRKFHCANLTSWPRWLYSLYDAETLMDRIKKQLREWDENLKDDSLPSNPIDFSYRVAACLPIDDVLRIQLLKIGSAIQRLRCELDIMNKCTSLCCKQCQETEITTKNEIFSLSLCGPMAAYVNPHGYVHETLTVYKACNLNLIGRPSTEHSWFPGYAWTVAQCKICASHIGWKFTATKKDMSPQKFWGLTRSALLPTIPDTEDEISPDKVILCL
UniProt Q9UKS7, sequence (whole entry, looked up): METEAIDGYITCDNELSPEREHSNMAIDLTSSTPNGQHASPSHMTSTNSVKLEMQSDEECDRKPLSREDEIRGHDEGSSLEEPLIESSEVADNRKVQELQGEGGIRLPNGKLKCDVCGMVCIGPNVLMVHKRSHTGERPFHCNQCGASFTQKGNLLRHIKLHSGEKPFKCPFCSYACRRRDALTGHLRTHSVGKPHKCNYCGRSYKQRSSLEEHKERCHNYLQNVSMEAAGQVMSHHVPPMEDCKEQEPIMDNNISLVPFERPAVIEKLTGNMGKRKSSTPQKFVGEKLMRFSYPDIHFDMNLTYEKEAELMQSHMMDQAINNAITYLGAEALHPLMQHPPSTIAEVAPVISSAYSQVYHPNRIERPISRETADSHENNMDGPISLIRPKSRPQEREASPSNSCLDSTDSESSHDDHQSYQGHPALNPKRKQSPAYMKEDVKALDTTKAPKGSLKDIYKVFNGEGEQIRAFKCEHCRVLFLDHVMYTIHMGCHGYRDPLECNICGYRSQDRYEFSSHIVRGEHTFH

Series 1
Target: tungstate, free oxyanion
Method: microfluidic competitive inhibition
Sample: in vitro, cell-free expressed
Tested at: not given
Setting: derived from inhibition constants, unchanged parent 2230 nM
Direction: lower = stronger binding
Starting sequence: PafA, mature enzyme, eGFP fusion (Elizabethkingia meningoseptica, UniProt Q9KJX5); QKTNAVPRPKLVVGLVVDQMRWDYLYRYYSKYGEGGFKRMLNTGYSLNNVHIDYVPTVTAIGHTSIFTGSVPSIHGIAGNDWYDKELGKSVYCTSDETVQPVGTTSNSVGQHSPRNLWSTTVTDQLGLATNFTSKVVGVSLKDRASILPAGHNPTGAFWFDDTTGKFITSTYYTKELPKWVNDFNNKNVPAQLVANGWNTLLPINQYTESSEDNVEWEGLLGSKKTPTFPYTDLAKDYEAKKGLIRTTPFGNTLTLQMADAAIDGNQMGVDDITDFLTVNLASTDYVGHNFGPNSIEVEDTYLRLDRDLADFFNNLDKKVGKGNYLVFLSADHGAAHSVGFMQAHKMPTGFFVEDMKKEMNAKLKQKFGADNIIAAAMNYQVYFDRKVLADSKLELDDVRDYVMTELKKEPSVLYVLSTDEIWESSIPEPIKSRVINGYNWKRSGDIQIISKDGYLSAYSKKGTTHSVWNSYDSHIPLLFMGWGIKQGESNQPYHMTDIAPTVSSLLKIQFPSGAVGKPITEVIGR
Change | oxyanion analog dissociation constant
F352G | 1870 nM
N188G | 1930 nM
V102G | 671 nM
L396V | 2130 nM
D53G | 2020 nM
D308V | 2860 nM
T255G | 3930 nM
P430V | 2110 nM

Series 2
Target: CCND2, cyclin fold, Cln2 fusion (human)
Method: yeast growth competition, sequencing
Sample: yeast
Setting: weak parent motif
Reference: not given
Direction: higher = stronger binding
Starting sequence: viral docking peptide; TSVRRALFTGGSD; partner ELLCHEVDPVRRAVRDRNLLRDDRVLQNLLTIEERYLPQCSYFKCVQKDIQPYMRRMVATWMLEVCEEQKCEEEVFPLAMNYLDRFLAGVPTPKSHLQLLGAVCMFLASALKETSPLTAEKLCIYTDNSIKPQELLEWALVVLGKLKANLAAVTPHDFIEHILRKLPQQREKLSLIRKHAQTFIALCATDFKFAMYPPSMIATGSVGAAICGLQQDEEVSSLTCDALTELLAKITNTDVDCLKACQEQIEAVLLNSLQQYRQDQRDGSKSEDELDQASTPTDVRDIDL
Change | normalised enrichment score
S2C | 0.237
F8H | 0.112
F8N | 0.187
S12R | -0.229
S12V | 0.0254
S12K | -0.497
A6S | -0.246
A6N | 0.0455

Other studies, line by line
CRK2: Cyclin-dependent kinase 2 homolog (CRK2, Plasmodium falciparum, UniProt P61075)
Structure (SMILES) | target | assay | system | conditions | endpoint | result
COc1ccc2c(c1)O[C@H](c1ccc(OC)c(OC)c1)C[C@@H]2NC(=O)C1(c2ccc3c(c2)OC(F)(F)O3)CC1 | CRK2 | cell-free assay, competition with immobilised ligand | – | 1 µM | remaining binding | 92%
O=C1CCC(N2Cc3c(ccc4c3OCC43CCN(Cc4ccccc4)CC3)C2=O)C(=O)N1 (stereo not shown) | CRBN/Zinc finger protein Helios (Homo sapiens, UniProt Q96SW2+Q9UKS7) | degrader, HiBiT | HEK293 | 0.1694 nM | protein remaining | 108%
CN([C@@H]1CCc2c(CC(=O)O)c3cc(S(C)(=O)=O)ccc3n2C1)S(=O)(=O)c1ccc(F)cc1 | CRK2 | cell-free assay, competition with immobilised ligand | – | 1 µM | remaining binding | 100%

Some of these lines once more (series 1):
Change | oxyanion analog dissociation constant
L396V | 2130 nM
